Results gathered from unrelated publications.
Numbered parts are unrelated; each lists some results of a single study. Positions count from the first letter of the parent shown.

Block 1
Target: CCNE1, cyclin fold, Cln2 fusion (human)
Technique: yeast growth competition, sequencing
Medium: yeast
Setting: weak parent motif
Reference: not given
Direction: higher = stronger binding
Starting sequence: HIRA docking peptide (human); SLSKRKLELEVET
Change	normalised enrichment score
SLSKAKLELEVET [R5A]	-0.0126
ALSKRKLELEVET [S1A]	0.641
SLSKKKLEFEVET [R5K L9F]	0.105
SLSKRKLEAEVET [L9A]	-0.226
SLAKRKLELEVET [S3A]	-0.434
SLSARKLELEVET [K4A]	-0.531
SLSKRKLELEVEA [T13A]	0.397

Block 2
Target: Histone acetyltransferase KAT6A, winged helix 1, GST fusion (KAT6A, Homo sapiens, UniProt Q92794, residues 1-85)
Technique: protein binding microarray
Molecule type: double-stranded DNA, one strand shown
Medium: in vitro
Tested at: not given
Setting: 8-mer, flanks averaged, mean of 2 arrays, mostly near background
Reference: not given
Direction: higher = stronger binding
Target sequence (chain): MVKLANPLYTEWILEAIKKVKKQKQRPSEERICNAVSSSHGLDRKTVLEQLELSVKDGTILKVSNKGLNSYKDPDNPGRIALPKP
Sequence	E-score
ACTGCTAT	-0.0154
GGCGCACA	0.337
ATGAGCCA	-0.254
CACTGGAC	-0.0585
CATGGGCG	0.0829
GCTGAGCA	-0.161
GGTCCAAC	-0.00337
AGAGTTAT	-0.148
ACCCGTCG	0.421
AGAACCAA	-0.191
CCATTTCA	-0.235
AGGGAGTG	-0.208
AAGGCGGC	0.243
AGTTACTC	-0.102
GAAACAGC	-0.17
CTTATGTC	-0.0824
ACCGCCGT	0.435
CACAGCCC	-0.0647
ACCCAGCT	-0.191
GTACAGAC	0.0243
AAGTGTTC	-0.0836
ATTAGGGC	-0.123
CGCTGCTA	0.09
ACCCCGCG	0.394
GTGCCAGA	-0.191

Block 3
Target: RING finger protein unkempt homolog, zinc fingers 1-6, GST-SBP tag (UNK, Homo sapiens, UniProt Q9C0B0, residues 30-357)
UniProt Q9C0B0, sequence (30-357, looked up): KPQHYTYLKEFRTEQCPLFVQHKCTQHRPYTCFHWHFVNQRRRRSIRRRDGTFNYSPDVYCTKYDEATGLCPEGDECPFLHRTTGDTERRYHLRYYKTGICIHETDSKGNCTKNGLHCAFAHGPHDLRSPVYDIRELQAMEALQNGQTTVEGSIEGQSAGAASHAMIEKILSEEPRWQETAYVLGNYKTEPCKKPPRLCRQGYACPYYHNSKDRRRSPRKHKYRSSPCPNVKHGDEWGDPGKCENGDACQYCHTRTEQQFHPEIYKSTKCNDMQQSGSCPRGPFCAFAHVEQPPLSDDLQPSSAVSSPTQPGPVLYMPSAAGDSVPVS
Technique: RNA Bind-n-Seq
Molecule type: RNA
Medium: in vitro
Tested at: not given
Setting: RNA with constant flanks, ends assumed
Reference: input RNA pool
Direction: higher = stronger binding
Constant ends, left off below: GGGAGUUCUACAGUCCGACGAUC … CAACAGAGGAUUGAGCAUCA
Sequence	bound/input enrichment [ratio]
GAACGGGGACGCCUGAAAGAAGAGCUAGAAGAAGCCCGGGACAUAGCUAGGCGGCGCUCUUCCGGGAAUAUCAAGUUUAUUGGAGAGUUAUUCAAGUUGAAGAUGUUAACAGAAGCAAUA	8.63
UCAUCAAAGAUAUUGUCUGCUGAAAGUUCAUCUAGUACAGAAACUUCGGUGGUCAGCAGCCGUUCAGUUUCUAAUGCCACUUUUUCUGGAACUCCUCCACAGCCUACAAGUCGGAGACAA	0.145
UCAUUUGCUCCUGAAUCUUGCUCAUUCUUUUUCUCUAGGUCUUUUUCUUUUGAGUUUUCCCCGCUAUUCAACUUUCCGUUGUGUCCUUUUUUGCUGUCUCUGUGUUCCUCUCAUUCUCAA	3.18
GAUGCCCCUCUGGGAAGUUCUUAUAUGUGCAACAAAGAGCAGGUGCUUUCUGUGUCCCGAGCGUUUCAGAUCAACACCUUUAACCUAAAGGUGCAACCUUUUAAUGUGACAAAAGGACAG	0.192
GAUGUUAGGGAUGUGGUUGGGCGACGUCUAGAUCCCAGAGAAGGCCCUGGAAGGCCUCCAUCCGAUGCUAGGGAUCAUUUUGGAAGACCUCCUGUGGACAUGAGGGAGAAUCUUGUGAGG	0.499
AUGUGAAUAAAAUGUACAAAUUUGUUGUGUUUUUUUAUGUUCUGAGGCUGACUUCCCGGUCUCCGAUUAAUUUUUUAGGAAGGCCUUGCAUGCCAUCAAAAGUACAUUUGGCUGUGGUUU	0.516
UUUCCAGAUCAAGGAUACAGAGGUCGAGGCCGAGGUGAAUAUUACUCCAGAGGUCGAAGCUACCGAGGUUCUUAUGGAGGGCGUGGCAGGGGUGGUAGGGGACACACUCGAGAUUAUCCU	0.458

Block 4
Target: Ras GTPase-activating protein-binding protein 1, RRM domain (G3BP1, Homo sapiens, UniProt Q13283)
UniProt Q13283, sequence (whole entry, looked up): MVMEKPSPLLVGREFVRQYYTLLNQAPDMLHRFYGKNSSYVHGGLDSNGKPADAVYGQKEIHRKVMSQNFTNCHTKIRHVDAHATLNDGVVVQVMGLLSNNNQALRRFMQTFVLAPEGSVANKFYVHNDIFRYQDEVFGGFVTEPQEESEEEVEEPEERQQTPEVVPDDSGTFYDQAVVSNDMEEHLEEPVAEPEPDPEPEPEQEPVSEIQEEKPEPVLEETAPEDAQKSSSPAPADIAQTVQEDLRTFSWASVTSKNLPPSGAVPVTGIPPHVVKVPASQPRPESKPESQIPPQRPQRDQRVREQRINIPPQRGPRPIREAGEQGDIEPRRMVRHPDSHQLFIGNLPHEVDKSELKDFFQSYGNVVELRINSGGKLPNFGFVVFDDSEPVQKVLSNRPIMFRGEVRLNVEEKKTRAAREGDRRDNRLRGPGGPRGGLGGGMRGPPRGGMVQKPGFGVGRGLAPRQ
Technique: RNA Bind-n-Seq
Molecule type: RNA
Medium: in vitro
Tested at: 1 µM
Setting: whole 134-nt RNA, ends assumed
Together with: 150 mM KCl
Reference: input library
Direction: higher = stronger binding
Constant ends, left off below: GGGAGUUCUACAGUCCGACGAUC … UGGAAUUCUCGGGUGUCAAGG
Sequence	log2 enrichment
UGGCCCUGGUGGCAUGCGGGGAGGAAGACGUGGCCUCAUGGAUCGUGGUGGUCCCGGUGGAAUGUUCAGAGGUGGCCGUGGUGGAGACAG	0.824
UGCCUCGGGAGGAGCUGUUUGUGACAUCCAAGCUGUGGAACACCAAGCACCACCCCGAGGAUGUGGAGCCUGCCCUCCGGAAGACUCUGG	-0.617
CAAGUCCUGUGCUACACAUCGUAUGUACCGAAUCGGAAAAGGAAAAGGGGAAAAGGAAAGUAUUAUGUUACGCCGUUCGGAUCUGCACUU	-0.139
AGUCCUGUGCUACACAUCGUAUGUACCGAAUCGGAAAAAGGAAAAAGGGGAAAAAGGAAAGUAUUAUGUUACGCCGUUCGGAUCUGCACU	-0.0949
GUCCUGUGCUACACAUCGUAUGUACCGAAUCGGGGUUUUUGGGGUUUUUGGGGUGGGGAAAGUAUUAUGUUACGCCGUUCGGAUCUGCAC	0.698
AGUCCUGUGCUACACAUCGUAUGUACCGAAUCGGGGCCCCGGGCCCCGGGGCCCCGGAAAGUAUUAUGUUACGCCGUUCGGAUCUGCACU	0.188
UUUCACUUCCAGCCAGCUGUGAAGAAGGUGAGCUUGCCUUCCAUCUUCCCCCCUAUCCGCCGCGUAUCUCCGUCGUCUGCAAGCGCGUGA	-0.0371
CCUGUGCUACACAUCGUAUGUACCGAAUCGGGAAAAAAAGGGAAAAAAAGGAAAAAAAGGGAAAGUAUUAUGUUACGCCGUUCGGAUCUG	-0.0106
AGUCCUGUGCUACACAUCGUAUGUACCGAAUCGGAAAAAGGGAAAAAGGAAAAAGGGAAAGUAUUAUGUUACGCCGUUCGGAUCUGCACU	0.0469
UAACUUUAGAGGAGGAUCUGAUGGAUAUGGCAGUGGACGUGGAUUUGGGGAUGGCUAUAAUGGGUAUGGAGGAGGACCUGUAGGUGGCAA	-0.327
UGGGAGGUGGAUUUUGUUUAUUUUUUUAGCUCAUUUGCAGGGGUGGGAAUUUUUUUUUAAUAUGUGUCAUGAAUAAAGUUGUUUUUGAAA	1.69
GCAGGAAGUAAAAACAAACGGAAAUGCUUCGGAUAGUGGCAGGGGUGGGGGUUGCUAAGGAAAGGGUGGGAUGGGAGUGGGUAAAGAGUU	0.952
UAACUUUAGAGGAGGAUCUGAUGGAUAUCGCAGUGGACGUGGAUUUGGGGAUGGCUAUAAUGGGUAUGGAGGAGGACCUGGAGGUGGCAA	-0.748
UACUCUCUCGGGGCUGGAAGCUUCCUGACUGAAGAUCUCUCUGCACUUGGGGUUCUUUCUAGAACAUUUUCUAGUCCCCCAACACCCUUU	-0.0112

Block 5
Target: JDP2, bZIP domain (human)
Technique: DHFR protein complementation
Medium: yeast
Setting: single substitutions, most at no-binding floor
Reference: wild-type JUN-FOS pair
Direction: higher = stronger binding
Starting sequence: JUN, bZIP domain (human); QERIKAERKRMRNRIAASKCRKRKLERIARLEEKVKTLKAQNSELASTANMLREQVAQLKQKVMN; partner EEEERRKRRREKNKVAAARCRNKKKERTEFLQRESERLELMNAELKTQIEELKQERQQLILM
Change	binding fitness [natural log]
V35Q	0.0466
A46M	0.268
V56H	-0.47
S43P	-0.338
A29M	0.0399
L52W	0.14
K39A	0.216
A29L	0.105
L45V	-0.212
K36G	0.313
R30C	0.248
E44K	0.255
L59G	0.00578
N42S	0.201
E32L	0.198
A29N	0.295

Block 6
Target: Sal-like protein 4, full length isoform B (SALL4, Homo sapiens, UniProt Q9UJQ4-2, residues 1-616)
Technique: universal PBM
Molecule type: double-stranded DNA, one strand shown
Medium: in vitro
Tested at: not given
Setting: 8-mer, flanks averaged, mean of replicates
Direction: higher = stronger binding
Sequence	E-score
ACATGGCA	-0.0308
TAACAAAA	0.35
CACCTATG	-0.073
TATCCGCA	0.16
CGTCATCA	0.0519
GATATTCC	0.122
CCTACTCC	-0.11
AGCCGACG	-0.266
ATAGAGCG	0.0559
AAGATTGT	0.157
ACGGACCT	-0.297
CATACTAC	0.0835
CACTTTTC	0.124
AGATCCAG	-0.192
ACCTTATA	0.246
AGTTGGAC	-0.0121

Block 7
Target: ABI1, truncated, D143A, DHFR fusion (Arabidopsis thaliana)
Technique: DHFR PCA, deep sequencing
Medium: yeast
Setting: methotrexate growth selection, single substitutions
Together with: (+)-ABA 0.11 µM
Reference: wild-type fitted maximum
Direction: higher = stronger binding
Starting sequence: PYL1, truncated, DHFR fusion (Arabidopsis thaliana); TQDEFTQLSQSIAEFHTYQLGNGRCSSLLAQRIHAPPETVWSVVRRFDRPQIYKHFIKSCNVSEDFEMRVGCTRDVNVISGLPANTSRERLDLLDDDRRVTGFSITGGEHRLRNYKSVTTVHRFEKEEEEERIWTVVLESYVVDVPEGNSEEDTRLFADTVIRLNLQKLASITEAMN; partner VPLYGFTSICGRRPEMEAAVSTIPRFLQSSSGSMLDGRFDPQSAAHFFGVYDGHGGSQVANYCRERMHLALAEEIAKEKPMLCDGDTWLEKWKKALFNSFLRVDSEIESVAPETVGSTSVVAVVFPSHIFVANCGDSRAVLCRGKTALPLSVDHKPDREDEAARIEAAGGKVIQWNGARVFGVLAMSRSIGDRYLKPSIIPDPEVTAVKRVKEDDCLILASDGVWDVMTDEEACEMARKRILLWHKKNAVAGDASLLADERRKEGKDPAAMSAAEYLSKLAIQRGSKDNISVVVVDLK
Change	relative binding score
E139W	11.3%
Y18N	-0.571%
T86A	9.01%
Y53M	-2.25%
R88P	-3.56%
S11P	48.6%
Q31A	0.353%
N177G	39.2%
E174C	5.03%
I57C	-5.02%
R132F	13.2%
D159V	3.37%
F157V	9.96%
T154L	4.94%
S27E	2.65%
D153K	2.96%

Some of these lines once more (block 5):
Change	binding fitness [natural log]
K39A	0.216
A29L	0.105
L45V	-0.212
K36G	0.313
R30C	0.248
E44K	0.255
